Literature values that unrelated publications cite.
Chain of UniProt Q9UEE5 (whole entry, looked up): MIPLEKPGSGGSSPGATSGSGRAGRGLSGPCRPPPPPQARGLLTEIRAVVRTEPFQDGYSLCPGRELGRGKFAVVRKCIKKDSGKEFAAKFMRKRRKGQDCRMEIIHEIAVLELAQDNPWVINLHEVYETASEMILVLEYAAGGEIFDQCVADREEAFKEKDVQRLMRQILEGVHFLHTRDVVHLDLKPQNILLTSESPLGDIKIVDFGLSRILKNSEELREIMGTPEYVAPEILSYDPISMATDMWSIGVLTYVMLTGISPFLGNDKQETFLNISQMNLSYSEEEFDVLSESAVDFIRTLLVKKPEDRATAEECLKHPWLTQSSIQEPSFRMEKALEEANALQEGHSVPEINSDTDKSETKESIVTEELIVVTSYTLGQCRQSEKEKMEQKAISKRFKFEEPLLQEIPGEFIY

Structure (SMILES) | tested on | test | system | conditions | how to read | quantity | value
NNC(=O)c1ccncc1 | Salmonella enterica serovar Typhimurium | Ames test | – | concentration not given | – | Ames mutagenicity | positive
Cc1cc(-c2nccc3c2ccn3CC(=O)Nc2ccc(-c3cnccn3)cn2)ccn1 | bacteria | – | – | concentration not given, genotoxicity | – | Ames test result | negative
CC1(C)S[C@@H]2[C@H](NC(=O)[C@H](N)c3ccccc3)C(=O)N2[C@H]1C(=O)O | Klebsiella pneumoniae | – | clinical isolate RKI-No_94/15 | – | – | MIC | > 16 µg/mL
CC(=O)O[C@H]1C(=O)[C@@]2(C)[C@H]([C@H](OC(=O)c3ccccc3)[C@]3(O)C[C@H](OC(=O)[C@H](O)[C@@H](NC(=O)c4ccccc4)c4ccccc4)C(C)=C1C3(C)C)[C@]1(OC(C)=O)CO[C@@H]1C[C@@H]2O | DLD-1 (Pgp+ drug-resistant) | cytotoxicity | – | – | – | IC50 | 0.364 µM
CNCc1cc(-c2ccccc2F)n(S(=O)(=O)c2cccnc2)c1 | – | – | human | 15 mg, single dose | – | AUC(0-inf) | 107 ng·h/mL
CCCCC(C)C(=O)O (centres unmarked) | mouse D3 embryonic stem cells | cell differentiation, inhibitor | – | unbound medium concentration | – | IC10 | 875 µM
C[Si]1(C)O[Si](C)(C)O[Si](C)(C)O[Si](C)(C)O1 | Pimephales promelas | – | – | concentration not given, added: 14C-labelled compound | – | bioconcentration factor | 4300 L/kg wet weight
CCNS(=O)(=O)C(F)(F)C(F)(F)C(F)(F)C(F)(F)C(F)(F)C(F)(F)C(F)(F)C(F)(F)F | CYP3A4 | – | – | concentration not given | – | activity | inactive
CCCCC(CC)C(=O)O (centres unmarked) | mouse D3 embryonic stem cells | cell differentiation, inhibitor | – | unbound medium concentration | – | IC10 | 406 µM
CC(=O)Nc1ccc(O)cc1 | UGT1A9 | substrate | – | – | – | Km | 9.2 mM
C=CC[C@@H]1/C=C(\C)C[C@H](C)C[C@H](OC)[C@H]2O[C@@](O)(C(=O)C(=O)N3CCCC[C@H]3C(=O)O[C@H](/C(C)=C/[C@@H]3CC[C@@H](O)[C@H](OC)C3)[C@H](C)[C@@H](O)CC1=O)[C@H](C)C[C@@H]2OC | human CYP3A5 recombinant | substrate | – | – | – | intrinsic clearance | 81 µL/min/pmol
Cc1[nH]c(C)c([N+](=O)[O-])c(=O)c1-c1ccc(Oc2ccccc2)cc1 | Plasmodium falciparum | whole cell extended time | 3D7 | 72 h | – | IC50 | 0.27 µM
Nc1cc(C(F)(F)F)c(-c2nc(N3CCOCC3)nc(N3CCOCC3)n2)cn1 | STK17A (Homo sapiens, UniProt Q9UEE5) | enzyme activity | – | 10 µM | baseline: untreated | remaining activity | 97%
CC[C@H]1OC(=O)[C@H](C)[C@@H](O[C@H]2C[C@@](C)(OC)[C@@H](O)[C@H](C)O2)[C@H](C)[C@@H](O[C@@H]2O[C@H](C)C[C@H](N(C)C)[C@H]2O)[C@](C)(OC)C[C@@H](C)C(=O)[C@H](C)[C@@H](O)[C@]1(C)O | SLCO1B1 | inhibitor | – | Simcyp compound file | – | Ki | 0.35 µM
CO[C@]1(C(=O)N[C@@H](C)c2ccc(-n3cc(F)cn3)nc2)CC[C@H](c2nc(C)cc(Nc3cc(C)[nH]n3)n2)CC1 | BCRP | – | C2BBe1 | added: fumitremorgin C | – | efflux ratio change | no effect
C[C@H]1COCCN1c1nc(-c2cnc(N)cc2C(F)F)nc(N2CCOCC2)n1 | J82 | – | – | – | – | GI50 | 0.477 µM
CCC(CC)C(=O)O | mouse D3 embryonic stem cells | cell viability | – | unbound medium concentration | – | IC10 | 2000 µM
Cc1[nH]c(C)c(-c2ccc(CCc3cccc(C(F)(F)F)c3)nc2)c(=O)c1Cl | Plasmodium falciparum | whole cell extended time | 3D7 | 72 h | – | IC50 | 0.1 µM
CNC(C)C1CCC(N)C(OC2C(N)CC(N)C(OC3OCC(C)(O)C(NC)C3O)C2O)O1 (centres unmarked) | Klebsiella pneumoniae | – | clinical isolate RKI-No_80/15 | – | – | MIC | > 8 µg/mL
CCCCCC(CCC)C(=O)O (centres unmarked) | mouse D3 embryonic stem cells | cell differentiation, inhibitor | – | unbound medium concentration | – | IC10 | 116 µM

Excerpt of the above:
Structure (SMILES) | tested on | test | system | conditions | how to read | quantity | value
C[Si]1(C)O[Si](C)(C)O[Si](C)(C)O[Si](C)(C)O1 | Pimephales promelas | – | – | concentration not given, added: 14C-labelled compound | – | bioconcentration factor | 4300 L/kg wet weight
CCNS(=O)(=O)C(F)(F)C(F)(F)C(F)(F)C(F)(F)C(F)(F)C(F)(F)C(F)(F)C(F)(F)F | CYP3A4 | – | – | concentration not given | – | activity | inactive
CCCCC(CC)C(=O)O (centres unmarked) | mouse D3 embryonic stem cells | cell differentiation, inhibitor | – | unbound medium concentration | – | IC10 | 406 µM
